Measured values from different studies.
Numbered parts are unrelated; each lists some results of a single study. Positions count from the first letter of the parent shown.

Sample 1 — technique: RNA Bind-n-Seq; form: RNA; sample: in vitro; tested at: 200 nM; setting: whole 134-nt RNA, ends assumed; added: 150 mM LiCl; relative to: input library; reading: higher = stronger binding; endpoint: log2 enrichment; library: 7-deaza-guanosine replaces G
Target: Ras GTPase-activating protein-binding protein 1, full length (G3BP1, Homo sapiens, UniProt Q13283)
Sequence of UniProt Q13283 (whole entry, looked up): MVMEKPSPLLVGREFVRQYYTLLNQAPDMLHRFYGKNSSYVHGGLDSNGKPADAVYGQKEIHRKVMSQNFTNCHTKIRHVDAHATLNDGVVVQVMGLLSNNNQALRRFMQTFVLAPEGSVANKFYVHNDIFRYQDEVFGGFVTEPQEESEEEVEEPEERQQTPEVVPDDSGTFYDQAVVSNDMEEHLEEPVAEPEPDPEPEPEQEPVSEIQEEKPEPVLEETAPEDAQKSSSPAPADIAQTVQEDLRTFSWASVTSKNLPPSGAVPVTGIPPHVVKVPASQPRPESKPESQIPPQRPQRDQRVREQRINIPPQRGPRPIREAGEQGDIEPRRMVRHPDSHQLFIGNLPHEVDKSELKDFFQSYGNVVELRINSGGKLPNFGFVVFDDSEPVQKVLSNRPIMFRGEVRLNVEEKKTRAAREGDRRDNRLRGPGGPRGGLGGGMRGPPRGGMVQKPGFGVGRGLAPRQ
Shared flanks, not repeated: GGGAGUUCUACAGUCCGACGAUC … UGGAAUUCUCGGGUGUCAAGG
AGUCCUGUGCUACACAUCGUAUGUACCGAAUCGGGCCCCGGGGCCCCGGGGCCCCGGAAAGUAUUAUGUUACGCCGUUCGGAUCUGCACU: -0.0682
CACAGACAACACGCACCCACACAGACACAGAGGGAAGGGGUUGGGAUGGGGACAGGGUGCACAGCAGGGCGGGGUAGGACCGCAGCCCCU: -0.555
UCAAGUCCUGUGCUACACAUCGUAUGUACCGAAUCGGGUUUGGGAAAGGGUGGGAAAGUAUUAUGUUACGCCGUUCGGAUCUGCACUUCC: -0.953
CAAGUCCUGUGCUACACAUCGUAUGUACCGAAUCGGCCCGGGGCCCGGGGCCCGGAAAGUAUUAUGUUACGCCGUUCGGAUCUGCACUUC: -0.625
UGGGAGGUAGAUUUUGUUUAUUUUUUUAGCUCAUUUCCAGGGGUGGGAAUUUUUUUUUAAUAUGUGUCAUGAAUAAAGUUGUUUUUGAAA: 0.539
UCAAGUCCUGUGCUACACAUCGUAUGUACCGAAUCGGGCCGGGCCGGGGCCGGGAAAGUAUUAUGUUACGCCGUUCGGAUCUGCACUUCC: 0.225
ACCAUGCAGGUGGGCAUCUUUGGGAAGUGGGGCAAGAAAGGGAUAGGGAGGGGGGUAACACUUUGGGAACAGGUGGUCCCAGGUCGUUUC: 0.387
UCCUGCCAACCUCUCUUAAUGCUCUGAGAGCCUCUGGUGUUGACAUAGAAGAGGAAACGGAGAAGAACCUGGAAAAGGUACAGACUAUCA: -2.37
UCCUCAAGUCCUGUGCUACACAUCGUAUGUACCGAAUCGGCGGCGGGGCGGGAAAGUAUUAUGUUACGCCGUUCGGAUCUGCACUUCCAG: 0.942
UCAGAAGGUCUUUUAAGUCUGACCACCCAGCUUGUCAAGGAAAAACUCUCCACCUGUGAAGCAGAGGACAUCGCCACCUAUGAGCAGAAU: 0.845
CCUCAAGUCCUGUGCUACACAUCGUAUGUACCGAAUCGGGAGGGGAGGAGGGAAAGUAUUAUGUUACGCCGUUCGGAUCUGCACUUCCAG: 0.676

Sample 2 — technique: RNA Bind-n-Seq; form: RNA; sample: in vitro; tested at: not given; relative to: input RNA pool; reading: higher = stronger binding; endpoint: bound/input enrichment
Target: RING finger protein unkempt homolog, zinc fingers 1-6, GST-SBP tag (UNK, Homo sapiens, UniProt Q9C0B0, residues 30-357)
Sequence of UniProt Q9C0B0 (30-357, looked up): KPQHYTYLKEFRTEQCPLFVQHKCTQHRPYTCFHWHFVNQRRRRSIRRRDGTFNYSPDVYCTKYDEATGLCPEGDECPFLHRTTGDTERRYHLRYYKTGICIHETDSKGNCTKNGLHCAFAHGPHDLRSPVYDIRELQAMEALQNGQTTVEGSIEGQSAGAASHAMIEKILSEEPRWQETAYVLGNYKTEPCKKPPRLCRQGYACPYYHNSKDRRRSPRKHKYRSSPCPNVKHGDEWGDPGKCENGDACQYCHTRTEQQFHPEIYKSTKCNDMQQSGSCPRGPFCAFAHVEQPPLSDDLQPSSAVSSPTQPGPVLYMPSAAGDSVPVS
Setting: RNA with constant flanks, human-mouse chimeric sites, ends assumed
Shared flanks, not repeated: GGGAGUUCUACAGUCCGACGAUC … CAACAGAGGAUUGAGCAUCA
UACAUUUUAUUGUUGAGUUUCAUUUUCAUAUAUUCUUGUAGUGUCUGCUUGCCUGUGACUUCUGGUAAAAUAAAAUAUUAAAAUUACAAUAUUUUAGCAUGGUAUUUAACAUUUUCUAAA: 1.34 ratio
UCAGAAGCUGUGCUGGGUCACUUUUCAUAUCCAGAUCCUUCCCAGUGGACAGAUGAAGAACUGGGAAUCCCUCCUGAUGACGAGGACUGACACUGUAAACUCUCUGGACGAGUAGGAGCA: 0.711 ratio
CAGUCCCGCGACAGCGUUGCAGGACGAUGUGAACAAAAACUCAAAGCGGACCCUCUACUGUAGUUGAUGAUUCUCGAAAUGUGCUAUUAUUGUUUGUCUUUUUUUUUUUUUUUUUAAAGA: 0.891 ratio
CUGGCACUCUAUCAGAUAUAUUAAUUUUUUAAUGUAGAUAAAAUUUCAAAAAUGAAUGGCUAGUUUACACGUUUAACUAGGGUUUUACUAUAUAUGUGUACAUAUGUAUAUAUAUAUAUA: 5.09 ratio
AUAAAGGCCAUGUUGAGUGGUCCAGGUCAGUUUGCUGAGAAUGAAACCAACGAGGUCAAUUUUAGAGAGAUCCCCUCACAUGUGCUAUCAAAAGUGUGCAUGUAUUUUACCUACAAGGUC: 0.184 ratio
GUACUGCAGCAGCAGGGAAAACUGCAGGAAGCUCUGAUGCAUUAUAAAGAAGCCAUACGAAUCAGUCCUACCUUUGCUGAUGCCUACUCCAAUAUGGGAAACACUCUAAAGGAGAUGCAG: 0.165 ratio
GAUCCACAGUGGUCUGAGGAGCAACUCAUUGCUGCAAAAUUCUGUUUUGCUGGCCUUGUUAUAGGGCAGACUGAAGUGGACAUCAUGAGUCAUGCUACACAAGCUAUUUUUGAAAUUCUG: 0.206 ratio
GGCCUGGGACCGUCCUGGGCUAGUACAAUAGCGGCAGGUGGAGGCUCGAGAGGAAAGUUUGUUAGUGGAGGCAGUGGUAGAGGCCGUCAUGUACGGUCCUUUACUCGAUAGAUGUGUUCU: 0.698 ratio
ACCUCCCCCUCCCGCCUCACCCCACCCCCGCUUUUUGGAAAGUUUUUGGCGUUUCUUUUCCUUCCCCAUACAAAGUGGUUUUUACCACCCCCGCAAGUGGGGCUUGAAGGGCUUGACGGA: 0.661 ratio
GCAAGAGAUGAUGAGGCGGCAGCUGUUGCCCUUUCCUCCCUGAUUCAUGCUUUGGAUGAGUUAAACAUGGUCGCCAUCGUCCGAUAUGCUUAUGACAAAAGAUCUAAUCCUCAAGUUGGU: 0.127 ratio
GGGGAGAAACCUUACGAGUGUGUGCAGUGUGGGAAAUCCUACAGUCAGAGCUCAAACCUCUUCAGACAUCAGAGACGACACAAUGCAGAAAAACUUCUGAAUGUUGUGAAAGUUUAAGAA: 0.124 ratio

Sample 3 — technique: protein-binding microarray; form: double-stranded DNA, one strand shown; sample: in vitro; tested at: 250 nM; setting: 60-bp whole probe; added: salmon DNA 0.4 mg/ml; relative to: random background probes; reading: higher = stronger binding; endpoint: log fluorescence; shared flanks, not repeated: GCCTAGCAC … GTCTTGATTCGCTTGACGCTGCTG
Target: Interferon regulatory factor 5, full length, phosphomimetic (IRF5, Homo sapiens, UniProt Q13568-2, residues 1-514, K96S/S451D/S453D/S456D/S462D)
TTAGATATCAGACTGGACTAGTGCTAG: -0.0582 z-score
ATAGGTCTCGGTATCGGTTAGTGCTAG: 4.91 z-score
GACGAACTGAGTCTCAAGACGTGCTAG: -0.211 z-score
TCAGATTTTCCCATGAGACTGTGCTAG: 0.345 z-score
TCATATTTGCTTCAGGTACTGTGCTAG: 0.665 z-score
GACGATTCCAGTTTTGAGACGTGCTAG: 0.155 z-score
TGGTTTTTACTTTCTGAATGGTGCTAG: 3.83 z-score
GATGGTTTCGGTTCCGGGACGTGCTAG: 10.1 z-score
GACGAACTGGGGTAACGAGACGTGCTA: -0.512 z-score
GACGGACTGGACTTTCGGGAGGTGCTA: 4 z-score
GTCGATTTCGGGTATCGAGACGTGCTA: 6.42 z-score
TTAGATTTCGGGACAGGATTAGTGCTA: 3.13 z-score
TTAGAACTGGGGACAGGATTAGTGCTA: -0.532 z-score
TCAGGTCTGTTTCTGATACTGTGCTAG: 1.07 z-score
TTAGATCTCAGACTGTATTAGTGCTAG: 0.103 z-score
TTAAGTATCGACACTGGGTTAGTGCTA: 3.99 z-score
TTAGGTAGCCTACTGCTTTAGTGCTAG: -0.444 z-score
GACGAACTGGGGTATCGTGACGTGCTA: 0.011 z-score

Sample 4 — technique: DHFR PCA, deep sequencing; sample: yeast; added: (+)-ABA 2500 µM; relative to: wild-type fitted maximum; reading: higher = stronger binding; endpoint: relative binding score
Target: ABI1, truncated, D143A, DHFR fusion (Arabidopsis thaliana)
Setting: methotrexate growth selection, single substitutions
Starting sequence: PYL1, truncated, DHFR fusion (Arabidopsis thaliana); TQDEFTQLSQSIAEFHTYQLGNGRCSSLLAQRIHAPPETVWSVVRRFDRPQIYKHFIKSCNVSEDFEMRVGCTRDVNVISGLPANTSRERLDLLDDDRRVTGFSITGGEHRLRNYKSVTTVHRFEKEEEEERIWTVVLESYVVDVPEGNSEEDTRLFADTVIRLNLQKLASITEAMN
V143F: 66.6%
R123F: 95%
T135W: 8.69%
T39I: 98.5%
D96T: 85.6%
L138W: 60.2%
R90L: 80.8%
Y53E: 10%
L169P: 6.99%
R32H: 98.1%
E174V: 94.9%
V76L: 93.5%
C25L: 89.7%
V43T: 95.6%
F47H: 26.7%
N61F: 99%
R45F: 32.7%
L93C: 108%
N177I: 90.6%
F66V: 95.9%
L94Q: 86.1%
V161P: 10.3%
R113H: 106%
R98D: 96.4%
G102V: 78.3%

Sample 5 — target: CCNA2, cyclin fold, Cln2 fusion (human); technique: yeast growth competition, sequencing; sample: yeast; setting: strong parent motif; relative to: not given; reading: higher = stronger binding; endpoint: normalised enrichment score
Starting sequence: PKN2 docking peptide (human); VSAVQKLDFSDTM
D11G: 2.67
D11S: 2.3
T12R: 1.96
K6Q: 1.29
S2R: 3.58
V1D: 0.177
M13D: 2.15
K6D: -0.173
F9A: 0.00988
T12V: 1.99
T12H: 2.22
F9Q: -0.274
S2Q: 1.74
T12C: 2.32
L7M: -0.56
S2D: 0.235
V1T: 2.26
D8M: 1.11
S10Y: 1.84
D8I: 1.95
V1P: 1.87

Repeated from above (sample 5):
K6Q: 1.29
S2R: 3.58
V1D: 0.177
M13D: 2.15
K6D: -0.173
F9A: 0.00988
T12V: 1.99
T12H: 2.22
F9Q: -0.274
S2Q: 1.74
T12C: 2.32
L7M: -0.56
S2D: 0.235
